Assay results pooled from the literature.
Lines come from different studies, so protocols differ. ± gives the spread as reported.

Compound	target	assay	system	setting	scale	measurement	result
NC(=O)CN1C(=O)C(O)(CC(=O)c2cccc(N)c2)c2ccccc21 (stereo not shown)	uncharacterized protein (Leishmania donovani, UniProt A0A3Q8IA09)	competitive vs direct ITC		added: aspartate or glutamate		binding free energy decrease	0.2 to 0.5 kcal/mol
CC(/C=C/C(=O)NO)=C\[C@@H](C)C(=O)c1ccc(N(C)C)cc1	HDAC8 (Homo sapiens, UniProt Q9BY41)	ITC	Tris-HCl buffer	pH 7.5, 25 °C		TΔS	-0.3 ± 0.1 kcal/mol
CCCCn1c(-c2ccc3nn(CCC)c(Cc4ccc(-c5ccccc5-c5nnn[nH]5)cc4)c3c2)nc2ccccc21	GPR132 (Homo sapiens, UniProt Q9UNW8)	antagonist	yeast cells	added: SB-583831 agonist		Schild slope	1.9
CNc1ccccc1C(=O)O[C@H]1C[C@H](n2cnc3c(N)ncnc32)O[C@@H]1COP(=O)(O)OP(=O)(O)O	Unconventional myosin-Va (Gallus gallus, UniProt Q02440, D297C/G292C/I296C/S293C/V295G)	stopped-flow FRET		10 °C, added: MgCl2 2 mM		pocket reverse rate constant	0.85 ± 0.12 s⁻¹
Cc1ccc(-c2nc(Nc3nc4ccccc4o3)ncc2C#N)cc1	Grm5 (Rattus norvegicus, UniProt P31424)	calcium mobilization, negative allosteric modulator		added: glutamate EC80	baseline: maximal glutamate response	maximal response	2.6 ± 0.7%
Cn1ccc2c(N3CCN(CCCCOc4ccc5c(c4)NC(=O)CC5)CC3)cccc21	DRD2 (Homo sapiens, UniProt P14416, I184A)	β-arrestin2 recruitment, Tango	human cells			effect of I184A mutation	inhibited
Cc1ncsc1-c1ccc(C(CO)NC(=O)C2CC(O)CN2C(=O)C(C(C)C)n2cc(-c3ccc(COc4c(-c5c(C)c(F)cc6[nH]ncc56)c(C5CC5)cc5c(N6CC7CC6CN7)nc(OC6CCOCC6)nc45)cc3)nn2)cc1 (stereo not shown)	GTPase KRas (KRAS, Homo sapiens, UniProt P01116, G12D)	degrader	mouse PK-59 xenograft, tumour	intravenous, 30 mg/kg single, 144 h		protein degradation	63%
CCC12CCc3c(c4ccccc4n3C)CCN(CC3OC31)C2 (stereo not shown)	Triggering receptor expressed on myeloid cells 2 (Trem2, Mus musculus, UniProt Q99NH8)	cellular thermal shift	BV-2	25 µM, 1 h	baseline: DMSO	melting temperature shift	6.4 ± 0.7 °C
C=C1C(=O)O[C@@H]2[C@H]3C(CO)=CC(=O)C3=C(C)C[C@H](O)[C@@H]12	MAL12 (Saccharomyces cerevisiae S288c, UniProt P53341)	3D fluorescence		65.22 µM		fluorescence decrease	59.8%
CCOCCNC(=O)N1CCC[C@H](c2n[nH]c(-c3ccccc3)n2)C1	Aromatase (CYP19A1, Homo sapiens, UniProt P11511)	enzyme activity, inhibitor, MFC to HFC conversion		40 µM, added: MFC substrate		apparent Vmax	0.45 pmol HFC/min/pmol P450
CC(=O)N[C@H]1[C@@H](O[C@H](C)[C@H](NC(=O)[C@@H](NC(=O)CNC(=O)[C@@H](N)Cc2c[nH]cn2)C(C)C)C(=O)N[C@@H](CO)C(=O)N[C@@H](C)C(=O)N2CCC[C@H]2C(=O)N[C@@H](CC(=O)O)C(=O)N[C@H](C(=O)N[C@@H](CCCNC(=N)N)C(=O)N2CCC[C@H]2C(=O)N[C@@H](C)C(=O)N2CCC[C@H]2C(=O)NCC(=O)N[C@@H](CO)C(N)=O)[C@@H](C)O)O[C@H](CO)[C@H](O)[C@@H]1O[C@@H]1O[C@H](CO)[C@H](O)[C@H](O)[C@H]1O	Galectin-3 (LGALS3, Homo sapiens, UniProt P17931)	isothermal titration calorimetry		concentration not given, full-length protein		binding stoichiometry	0.87
COC(=O)c1ccc(CNC(=O)[C@@H]2C[C@@H](O)CN2C(C)=O)cc1	von Hippel-Lindau disease tumor suppressor, with Elongin B/C (VHL, Homo sapiens, UniProt P40337)	isothermal titration calorimetry		25 °C		entropic term (−TΔS)	-0.53 ± 0.02 kcal/mol
CCCN(CC(=O)N(CCC)CC(=O)N(CCC)CC(=O)N(CCC)CC(=O)N(CCC)CC(=O)N(CCC)CC(=O)N(CCC)CC(=O)N(CCC)CC(=O)N(CCC)CC(=O)N(CCC)CC(=O)N(CCC)CC(=O)N(CCC)CC(=O)N(CC(N)=O)Cc1cn(CCCNC(=O)CCCOc2cccc(-c3nc4ccc(-c5nc6ccc(N7CCN(C)CC7)cc6[nH]5)cc4[nH]3)c2)nn1)C(=O)CNCc1cn(CCCNC(=O)CCCOc2cccc(-c3nc4ccc(-c5nc6ccc(N7CCN(C)CC7)cc6[nH]5)cc4[nH]3)c2)nn1	MBNL1–r(CUG)109 complex	MBNL1 displacement	0.65 pmol r(CUG)109	unit not given, added: yeast tRNA 3.7 µM	baseline: monomer 2 IC50 per module	multivalent effect	< 1.8

Excerpt of the above:
Compound	target	assay	system	setting	scale	measurement	result
CCCN(CC(=O)N(CCC)CC(=O)N(CCC)CC(=O)N(CCC)CC(=O)N(CCC)CC(=O)N(CCC)CC(=O)N(CCC)CC(=O)N(CCC)CC(=O)N(CCC)CC(=O)N(CCC)CC(=O)N(CCC)CC(=O)N(CCC)CC(=O)N(CC(N)=O)Cc1cn(CCCNC(=O)CCCOc2cccc(-c3nc4ccc(-c5nc6ccc(N7CCN(C)CC7)cc6[nH]5)cc4[nH]3)c2)nn1)C(=O)CNCc1cn(CCCNC(=O)CCCOc2cccc(-c3nc4ccc(-c5nc6ccc(N7CCN(C)CC7)cc6[nH]5)cc4[nH]3)c2)nn1	MBNL1–r(CUG)109 complex	MBNL1 displacement	0.65 pmol r(CUG)109	unit not given, added: yeast tRNA 3.7 µM	baseline: monomer 2 IC50 per module	multivalent effect	< 1.8
